# Published values of several laboratories.
# Protocols differ between the studies behind these lines.
SMILES,test system,setting,Cmax
CCC(=O)NC1CC=C(c2cc3c(Nc4cc5ncsc5cc4F)ncnc3s2)CC1 (racemic),"mouse, plasma","oral, 10 mg/kg",2560 ng/mL
CC(C)(C)c1cnc(CSc2cnc(NC(=O)C3CCN(C(=O)CCCCCCCN4Cc5cc6c(cc5C4)C(=O)N(C4CCC(=O)NC4=O)C6=O)CC3)s2)o1 (stereo not drawn),"mouse, plasma","intravenous, 2 mg/kg",280 ng/mL
O=C(OC(C(F)(F)F)C(F)(F)F)N1CCC(CNS(=O)(=O)c2ccc(Cl)cc2)CC1,"male SCID mouse, plasma","oral, 30 mg/kg",1780 ng/mL
COc1ccc2nc(NC(c3ccc(O)cc3)P(=O)(OC)OC)sc2c1 (stereo not drawn),"mouse, plasma","intravenous, 10 mg/kg",2130 ng/mL
COC1C(c2ccc(Cl)c(Cc3ccc(OC4CCOC4)cc3)c2)OC(CO)C(O)C1O (stereo not drawn),"CD-1 mouse, plasma","oral, 10 mg/kg",7970 ng/mL
O=S(=O)(Nc1ccc(OC(F)(F)F)cc1)N1CCCC(C2c3ccc(F)cc3CCc3cc(F)ccc32)C1 (stereo not drawn),"mouse, plasma","oral, 30 mg/kg",8860 ng/mL
COc1cnc2cccc(N3CCc4c(cc(Cn5ccnc5)cc4-c4cn(C)nc4C(F)(F)F)C3=O)c2c1,"male CD-1 mouse, plasma","intraperitoneal, 50 mg/kg",26800 ng/mL
CC(C)NC(=O)NC1CC=C(c2cc3c(Nc4cc5ncsc5cc4F)ncnc3s2)CC1 (racemic),"mouse, plasma","intravenous, 10 mg/kg",4330 ng/mL
Cc1cc(NC(=O)[C@H](O)c2cc(F)cc(F)c2)ccc1-c1cnc(N)c(C(=O)NC(C)C)c1,"female nude mouse, plasma","oral, 30 mg/kg, single dose",3670 ng/mL
Cn1c2cc([S+](C)[O-])sc2c2cnn(Cc3cccc(N)c3)c(=O)c21 (stereo not drawn),"male BALB/c mouse, plasma","intraperitoneal, 50 mg/kg, single dose",25800 ng/mL
Oc1ccc([C@@H]2Oc3ccc(O)cc3[C@@H]3CCC[C@@H]32)cc1,"male C57BL/6 mouse, plasma","oral, 10 mg/kg",0.27 µM
Cn1ccc(-c2cc(Cl)c(Cl)c3[nH]c4c(c23)CN(C(=O)CO)CC4)n1,"C57BL/6 mouse, blood","oral, 100 mg/kg",20.5 µM
N#CCCC1CCN(C(=S)c2ccc(-c3cc(Cl)ccc3Cl)o2)CC1,"male BALB/c mouse, plasma","oral, 10 mg/kg",4.55 ng/mL
Fc1cccc(-n2cc(-c3ccccc3)nc2NCc2ccc(C(F)(F)F)c(Br)c2)c1,"male CD-1 mouse, plasma","intraperitoneal, 25 mg/kg, single dose",5460 ng/mL
CC[C@H](C)/C=C/C=C/C=C/C(O)=C/C(=O)C(F)(F)Cl,"female C57BL/6 mouse, plasma","oral, 25 mg/kg",17 µM
CN[C@H](CC(C)C)C(=O)N[C@H]1C(=O)N[C@@H](CC(N)=O)C(=O)N[C@H]2C(=O)N[C@H]3C(=O)N[C@H](C(=O)N[C@H](C(=O)N[C@H](CCCNC(=N)N)C(N)=O)c4cc(O)cc(O)c4-c4cc3ccc4O)[C@H](O)c3ccc(c(Cl)c3)Oc3cc2cc(c3O[C@@H]2O[C@H](CO)[C@@H](O)[C@H](O)[C@H]2O[C@H]2C[C@](C)(N)[C@H](O)[C@H](C)O2)Oc2ccc(cc2Cl)[C@H]1O,"female CD-1 mouse, plasma","intravenous, 1 mg/kg, single dose",3270 ng/mL
CC(=O)N1CCC=C(c2cc3c(Nc4cc5ncsc5cc4F)ncnc3s2)C1,"mouse, plasma","intravenous, 10 mg/kg",14600 ng/mL
O=S(=O)(N[C@H]1CCO[C@@H](C2c3ccccc3CCc3ccccc32)C1)c1ccc(OC(F)(F)F)cc1,"mouse, plasma","oral, 30 mg/kg",1150 ng/mL
O=S(=O)(N[C@H]1CCC[C@@H](N2c3ccccc3CCc3ccccc32)[C@@H]1O)c1ccc(OC(F)(F)F)cc1,"mouse, plasma","intravenous, 1 mg/kg",1480 ng/mL
CC(=O)N1c2ccc(-c3ccc(CNC(=O)c4cn5cc(-c6cnc(N)nc6)nc(N6CCOCC6)c5n4)cc3)cc2CC[C@@H]1C,"female C57BL/6 mouse, plasma","intraperitoneal, 45 mg/kg, single dose",43.9 µM
O=C(C1CC1)N1CCC=C(c2cc3c(Nc4cc5ncsc5cc4F)ncnc3s2)C1,"mouse, plasma","intravenous, 10 mg/kg",5760 ng/mL
Cc1cc(NCC(=O)C(C)C)c2nc(N3CCOC[C@H]3C)cc(=O)n2c1,"C57BL/6 mouse, plasma","intraperitoneal, 10 mg/kg, single dose",2770 ng/mL
CCC(=O)N1CCC=C(c2cc3c(Nc4cc5ncsc5cc4F)ncnc3s2)C1,"mouse, plasma","intravenous, 10 mg/kg",6030 ng/mL
COC(=O)C1=CNC=C(C(=O)OC)C1c1ccc(F)c(C(F)(F)F)c1,"male C57BL/6 mouse, plasma","oral, 50 mg/kg",2570 ng/mL
CCn1cc(-c2cc(Cn3ccnc3)cc3c2CCN([C@H](c2cc(OC)ccn2)C2CC2)C3=O)c(C(F)(F)F)n1,"male CD-1 mouse, plasma","oral, 50 mg/kg",6550 ng/mL
CC[C@H](C)/C=C/C=C/C=C/C(O)=C/C(=O)C(Cl)(Cl)Cl,"female C57BL/6 mouse, plasma","oral, 25 mg/kg",2.4 µM
COc1ccccc1/C=C/CNCC(O)COc1ccc(Nc2ccccc2)cc1 (racemic),"mouse, plasma","oral, 10 mg/kg",58.6 ng/mL
Nc1ccc(-c2cc(Cl)c(Cl)c3[nH]c4c(c23)CN(C(=O)CO)CC4)cn1,"C57BL/6 mouse, blood","oral, 20 mg/kg",1.73 µM
CCC1C(COc2nccc3cc(C(N)=O)c(OC)cc23)NC(=O)C1F (stereo not drawn),"CD-1 mouse, plasma","oral, 10 mg/kg",1670 ng/mL
C[C@@]1(c2nc(-c3ccc(F)c4cn[nH]c34)no2)CCCN(C(=O)c2ccc(F)nc2)C1,"male C57BL/6 mouse, plasma","intraperitoneal, 20 mg/kg",7570 ng/mL
